Assay results pooled from the literature.
Each numbered part is a random draw from the data of one study; scales do not carry over between parts. Substitutions count along the parent as printed.
Chain of UniProt Q9ZTX9 (whole entry, looked up): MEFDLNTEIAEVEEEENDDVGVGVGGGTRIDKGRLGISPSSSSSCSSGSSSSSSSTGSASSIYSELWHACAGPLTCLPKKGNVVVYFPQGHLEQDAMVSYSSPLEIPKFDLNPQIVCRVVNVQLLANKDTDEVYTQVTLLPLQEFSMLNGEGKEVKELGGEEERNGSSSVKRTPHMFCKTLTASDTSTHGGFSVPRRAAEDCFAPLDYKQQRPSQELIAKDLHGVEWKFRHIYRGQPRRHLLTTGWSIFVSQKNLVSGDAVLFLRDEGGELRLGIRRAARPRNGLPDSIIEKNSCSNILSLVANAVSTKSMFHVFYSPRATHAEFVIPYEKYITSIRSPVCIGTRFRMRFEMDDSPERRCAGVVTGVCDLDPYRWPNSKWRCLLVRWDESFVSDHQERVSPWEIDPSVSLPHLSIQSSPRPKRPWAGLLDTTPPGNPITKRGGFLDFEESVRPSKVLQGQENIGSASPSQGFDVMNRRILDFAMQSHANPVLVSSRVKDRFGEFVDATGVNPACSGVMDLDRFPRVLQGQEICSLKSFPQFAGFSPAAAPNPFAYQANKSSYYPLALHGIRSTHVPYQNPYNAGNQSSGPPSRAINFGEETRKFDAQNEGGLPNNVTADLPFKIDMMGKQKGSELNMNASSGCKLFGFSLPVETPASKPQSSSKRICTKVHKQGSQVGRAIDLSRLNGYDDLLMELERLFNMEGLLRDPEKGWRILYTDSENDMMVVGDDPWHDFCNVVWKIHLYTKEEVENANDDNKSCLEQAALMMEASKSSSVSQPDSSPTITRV
Chain of UniProt Q9C5X0 (whole entry, looked up): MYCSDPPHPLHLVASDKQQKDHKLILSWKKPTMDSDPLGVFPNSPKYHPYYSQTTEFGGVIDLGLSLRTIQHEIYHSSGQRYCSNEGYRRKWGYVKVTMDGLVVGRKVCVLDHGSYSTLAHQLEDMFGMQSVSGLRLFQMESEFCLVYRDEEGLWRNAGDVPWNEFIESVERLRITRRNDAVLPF
Chain of UniProt Q9FGV1 (whole entry, looked up): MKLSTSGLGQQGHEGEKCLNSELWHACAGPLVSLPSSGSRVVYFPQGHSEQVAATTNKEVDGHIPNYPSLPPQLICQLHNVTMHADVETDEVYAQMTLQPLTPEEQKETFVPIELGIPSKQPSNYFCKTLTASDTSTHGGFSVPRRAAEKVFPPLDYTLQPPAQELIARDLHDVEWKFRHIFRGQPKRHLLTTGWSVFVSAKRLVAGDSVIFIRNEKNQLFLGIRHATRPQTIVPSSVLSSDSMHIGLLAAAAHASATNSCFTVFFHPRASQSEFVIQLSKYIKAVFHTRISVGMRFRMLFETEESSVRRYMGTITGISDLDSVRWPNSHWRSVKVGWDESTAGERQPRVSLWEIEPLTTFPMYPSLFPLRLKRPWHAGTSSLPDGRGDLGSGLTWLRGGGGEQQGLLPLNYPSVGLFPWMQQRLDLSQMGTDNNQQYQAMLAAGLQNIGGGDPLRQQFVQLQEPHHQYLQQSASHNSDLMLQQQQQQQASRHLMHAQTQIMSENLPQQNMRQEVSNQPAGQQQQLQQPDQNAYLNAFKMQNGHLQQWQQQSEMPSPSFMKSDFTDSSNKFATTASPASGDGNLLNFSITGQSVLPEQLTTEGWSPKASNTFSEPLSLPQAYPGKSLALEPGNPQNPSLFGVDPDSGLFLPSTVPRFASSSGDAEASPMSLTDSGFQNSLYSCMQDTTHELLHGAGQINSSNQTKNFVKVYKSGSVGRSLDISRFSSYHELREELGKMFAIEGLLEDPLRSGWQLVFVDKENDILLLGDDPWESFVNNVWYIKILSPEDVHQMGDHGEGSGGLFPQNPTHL
Chain of UniProt Q8RYC6 (whole entry, looked up): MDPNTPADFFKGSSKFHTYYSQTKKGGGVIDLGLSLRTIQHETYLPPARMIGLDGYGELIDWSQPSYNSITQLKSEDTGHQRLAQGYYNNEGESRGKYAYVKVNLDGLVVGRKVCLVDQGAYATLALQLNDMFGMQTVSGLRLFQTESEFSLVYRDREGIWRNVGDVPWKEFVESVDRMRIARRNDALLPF
Chain of UniProt Q84WU6 (whole entry, looked up): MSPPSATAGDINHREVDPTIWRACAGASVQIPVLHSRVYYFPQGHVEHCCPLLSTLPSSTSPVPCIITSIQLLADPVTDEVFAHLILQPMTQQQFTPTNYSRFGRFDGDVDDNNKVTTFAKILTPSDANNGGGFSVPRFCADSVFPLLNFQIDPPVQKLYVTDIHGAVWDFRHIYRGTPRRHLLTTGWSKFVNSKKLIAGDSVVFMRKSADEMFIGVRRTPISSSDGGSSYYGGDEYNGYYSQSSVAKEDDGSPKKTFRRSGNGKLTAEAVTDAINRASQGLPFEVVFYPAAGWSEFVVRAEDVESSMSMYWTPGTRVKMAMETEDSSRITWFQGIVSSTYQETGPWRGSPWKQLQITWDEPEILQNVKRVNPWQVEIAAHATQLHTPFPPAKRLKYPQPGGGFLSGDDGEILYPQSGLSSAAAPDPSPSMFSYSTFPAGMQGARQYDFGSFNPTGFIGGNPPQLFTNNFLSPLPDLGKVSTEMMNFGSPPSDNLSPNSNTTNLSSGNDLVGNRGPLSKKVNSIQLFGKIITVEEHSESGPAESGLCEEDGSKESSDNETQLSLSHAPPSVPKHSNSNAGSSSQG
Chain of UniProt Q9XED8 (whole entry, looked up): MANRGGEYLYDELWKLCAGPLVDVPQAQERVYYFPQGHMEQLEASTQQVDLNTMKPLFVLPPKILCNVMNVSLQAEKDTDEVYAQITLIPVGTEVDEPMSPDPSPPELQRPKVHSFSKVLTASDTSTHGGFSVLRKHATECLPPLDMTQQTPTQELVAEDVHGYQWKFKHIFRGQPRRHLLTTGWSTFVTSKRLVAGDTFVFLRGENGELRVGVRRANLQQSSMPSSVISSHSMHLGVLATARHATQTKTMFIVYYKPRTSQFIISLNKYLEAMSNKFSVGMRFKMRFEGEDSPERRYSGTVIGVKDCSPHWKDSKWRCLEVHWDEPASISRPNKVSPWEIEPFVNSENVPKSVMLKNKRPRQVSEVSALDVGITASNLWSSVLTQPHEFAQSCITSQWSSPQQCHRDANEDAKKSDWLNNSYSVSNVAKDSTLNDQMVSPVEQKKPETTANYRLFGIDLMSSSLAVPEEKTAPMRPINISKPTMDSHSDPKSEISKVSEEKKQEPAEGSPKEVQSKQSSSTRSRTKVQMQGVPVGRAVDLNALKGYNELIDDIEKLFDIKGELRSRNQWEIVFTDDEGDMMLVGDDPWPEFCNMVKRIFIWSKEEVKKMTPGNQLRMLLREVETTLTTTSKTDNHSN
Chain of UniProt P28335 (whole entry, looked up): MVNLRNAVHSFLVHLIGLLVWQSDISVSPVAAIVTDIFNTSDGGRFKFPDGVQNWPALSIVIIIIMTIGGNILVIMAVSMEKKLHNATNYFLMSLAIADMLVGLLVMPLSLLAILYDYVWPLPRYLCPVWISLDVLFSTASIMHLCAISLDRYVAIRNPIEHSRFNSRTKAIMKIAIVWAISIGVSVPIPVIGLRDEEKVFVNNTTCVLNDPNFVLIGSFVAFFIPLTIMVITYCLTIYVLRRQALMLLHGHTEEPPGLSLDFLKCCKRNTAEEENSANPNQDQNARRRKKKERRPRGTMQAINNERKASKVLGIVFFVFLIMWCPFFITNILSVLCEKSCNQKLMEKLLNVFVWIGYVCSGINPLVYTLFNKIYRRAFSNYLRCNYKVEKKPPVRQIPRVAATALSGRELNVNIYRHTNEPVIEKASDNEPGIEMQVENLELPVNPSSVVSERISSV

Sample 1 — Sequence: B1 (IAA28); technique: two-hybrid; reading: higher = firmer interaction; measurement: positive tests
B1: IAA28 (Arabidopsis thaliana, UniProt Q9XFM0); chain MEEEKRLELRLAPPCHQFTSNNNINGSKQKSSTKETSFLSNNRVEVAPVVGWPPVRSSRRNLTAQLKEEMKKKESDEEKELYVKINMEGVPIGRKVNLSAYNNYQQLSHAVDQLFSKKDSWDLNRQYTLVYEDTEGDKVLVGDVPWEMFVSTVKRLHVLKTSHAFSLSPRKHGKE
IAA34 (Arabidopsis thaliana, UniProt Q9C5X0); reference: out of 4 tests: 3
ARF9 519-638 (Arabidopsis thaliana, UniProt Q9XED8); weak activation fusion; reference: out of 4 tests: 2
ARF8 699-811 (Arabidopsis thaliana, UniProt Q9FGV1); reference: out of 4 tests: 4
ARF4 660-788 (Arabidopsis thaliana, UniProt Q9ZTX9); reference: out of 4 tests: 0
IAA32 (Arabidopsis thaliana, UniProt Q8RYC6); reference: out of 2 tests: 0
ARF17 (Arabidopsis thaliana, UniProt Q84WU6); weak activation fusion; reference: out of 3 tests: 0

Sample 2 — technique: protein-binding microarray; molecule type: double-stranded DNA, one strand shown; matrix: in vitro; concentration: not given; reading: higher = stronger binding; measurement: E-score
Target: Max-binding protein MNT, bHLH-zipper, MAX partner unstated (MNT, Homo sapiens, UniProt Q99583, residues 220-300)
Setting: k-mer, scored over probes, only values ≥0.25
Construct (chain): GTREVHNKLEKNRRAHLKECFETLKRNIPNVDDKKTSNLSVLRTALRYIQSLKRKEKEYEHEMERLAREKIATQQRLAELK
CGCCGCCA: 0.258
CCACCCCG: 0.263
ATGGCCAC: 0.274
CGCCATGC: 0.417
CACATGGC: 0.483
CTCACCCC: 0.261
CATGCAGG: 0.335
AAGCACGA: 0.292

Sample 3 — target: vanadate, free oxyanion; technique: microfluidic competitive inhibition; matrix: in vitro, cell-free expressed; concentration: not given; reading: lower = stronger binding; measurement: oxyanion analog dissociation constant
Setting: derived from inhibition constants, unchanged parent 676 nM
Parent: PafA, mature enzyme, eGFP fusion (Elizabethkingia meningoseptica, UniProt Q9KJX5); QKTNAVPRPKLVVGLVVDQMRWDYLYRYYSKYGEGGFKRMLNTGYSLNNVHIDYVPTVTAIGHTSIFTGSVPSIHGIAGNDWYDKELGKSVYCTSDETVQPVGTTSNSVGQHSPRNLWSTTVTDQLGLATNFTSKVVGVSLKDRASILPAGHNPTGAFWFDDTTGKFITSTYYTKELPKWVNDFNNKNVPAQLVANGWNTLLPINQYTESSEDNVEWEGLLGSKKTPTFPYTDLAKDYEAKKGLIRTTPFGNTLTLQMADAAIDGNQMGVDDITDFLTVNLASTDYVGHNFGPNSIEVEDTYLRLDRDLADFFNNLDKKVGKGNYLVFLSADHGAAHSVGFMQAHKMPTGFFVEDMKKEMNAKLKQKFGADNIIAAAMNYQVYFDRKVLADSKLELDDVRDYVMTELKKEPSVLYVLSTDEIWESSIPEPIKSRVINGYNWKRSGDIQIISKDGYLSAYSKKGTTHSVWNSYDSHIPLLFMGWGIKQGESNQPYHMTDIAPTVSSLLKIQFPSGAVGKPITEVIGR
W198G: 485 nM
V298G: 838 nM
T228V: 363 nM
M404G: 697 nM
R386G: 747 nM
V58G: 3.13 µM
W118G: 723 nM
V339A: 884 nM
I450V: 783 nM
N379V: 1.05 µM
P293V: 693 nM
D213V: 1.93 µM
M496V: 743 nM
I52V: 602 nM
S295G: 966 nM
K322V: 782 nM
A129G: 684 nM
A310G: 674 nM
F341G: 1.61 µM
W22G: 1.1 µM
I524G: 669 nM
S90G: 595 nM
F351V: 789 nM
V416A: 649 nM
K135G: 751 nM

Sample 4 — technique: protein-binding microarray; molecule type: hairpin DNA; matrix: in vitro; concentration: not given; reference: not given; reading: higher = stronger binding; measurement: median fluorescence; shared flanks, not repeated: GAGGCC … GGCCTCACACTCTT
Target: POU domain, class 6, transcription factor 1, POU and homeodomain (POU6F1, Homo sapiens, UniProt Q14863, residues 311-611)
Setting: whole hairpin DNA, median over replicate spots
Construct (chain): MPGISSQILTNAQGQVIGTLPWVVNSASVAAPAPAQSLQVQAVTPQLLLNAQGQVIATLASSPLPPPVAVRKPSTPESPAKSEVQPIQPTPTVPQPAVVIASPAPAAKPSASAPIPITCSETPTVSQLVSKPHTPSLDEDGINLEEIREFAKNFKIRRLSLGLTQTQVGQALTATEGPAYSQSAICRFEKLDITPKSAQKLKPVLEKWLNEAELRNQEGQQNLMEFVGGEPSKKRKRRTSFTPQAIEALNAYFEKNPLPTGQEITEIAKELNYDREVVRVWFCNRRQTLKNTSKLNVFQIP
ATATTTAGGTGCCTCCTGGCACCTAAATAT: 433 a.u.
CGAATTAGGTGCCTCCTGGCACCTAATTCG (5mC at 35): 411 a.u.
ATAATTATGTGCCTCCTGGCACATAATTAT: 2140 a.u.
ATAATGAGCTGCCTCCTGGCAGCTCATTAT (5mC at 15): 6230 a.u.
CTAATTAGGTGCCTCCTGGCACCTAATTAG (5mC at 7): 1370 a.u.
ATAATTACGTGCCTCCTGGCACGTAATTAT (5mC at 14 28): 1020 a.u.
ATACGTAGGTGCCTCCTGGCACCTACGTAT (5mC at 10): 346 a.u.
ATAATGAGGTGCCTCCTGGCACCTCATTAT (5mC at 29): 1520 a.u.

Sample 5 — target: ATF2, bZIP domain (human); technique: DHFR protein complementation; matrix: yeast; reference: wild-type JUN-FOS pair; reading: higher = stronger binding; measurement: binding fitness
Setting: single substitutions, most at no-binding floor
Parent: JUN, bZIP domain (human); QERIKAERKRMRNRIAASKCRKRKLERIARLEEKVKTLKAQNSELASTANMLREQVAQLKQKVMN; partner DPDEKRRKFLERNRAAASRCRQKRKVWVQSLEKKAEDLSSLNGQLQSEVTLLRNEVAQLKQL
A46G: -1.37 natural log
S47P: -1.53 natural log
Q41G: -1.49 natural log
S43M: -1.41 natural log
A40V: -1.43 natural log
E32V: -1.4 natural log
K39G: -1.47 natural log
V56N: -1.58 natural log

Further values, each from its own experiment
CCCc1nc2c(C)cc(-c3nc4ccccc4n3C)cc2n1Cc1ccc(-c2ccccc2C(=O)O)cc1
viability (HEK-293T/ACE2; concentration not given, 16 (unit not given); reference: vehicle): 98.9%

Nc1nc(NCc2ccccc2)nc(-c2cccc(CO)c2)n1
inhibition (HTR2C (Homo sapiens, UniProt P28335); ligand displacement; 10 µM): 3.72%

For quick reference, copied from above (sample 3):
D213V: 1.93 µM
M496V: 743 nM
I52V: 602 nM
S295G: 966 nM
